Measurements collected from several papers.
Parts stem from different laboratories: compare values within a part only.
Chain of UniProt Q9P286 (whole entry, looked up): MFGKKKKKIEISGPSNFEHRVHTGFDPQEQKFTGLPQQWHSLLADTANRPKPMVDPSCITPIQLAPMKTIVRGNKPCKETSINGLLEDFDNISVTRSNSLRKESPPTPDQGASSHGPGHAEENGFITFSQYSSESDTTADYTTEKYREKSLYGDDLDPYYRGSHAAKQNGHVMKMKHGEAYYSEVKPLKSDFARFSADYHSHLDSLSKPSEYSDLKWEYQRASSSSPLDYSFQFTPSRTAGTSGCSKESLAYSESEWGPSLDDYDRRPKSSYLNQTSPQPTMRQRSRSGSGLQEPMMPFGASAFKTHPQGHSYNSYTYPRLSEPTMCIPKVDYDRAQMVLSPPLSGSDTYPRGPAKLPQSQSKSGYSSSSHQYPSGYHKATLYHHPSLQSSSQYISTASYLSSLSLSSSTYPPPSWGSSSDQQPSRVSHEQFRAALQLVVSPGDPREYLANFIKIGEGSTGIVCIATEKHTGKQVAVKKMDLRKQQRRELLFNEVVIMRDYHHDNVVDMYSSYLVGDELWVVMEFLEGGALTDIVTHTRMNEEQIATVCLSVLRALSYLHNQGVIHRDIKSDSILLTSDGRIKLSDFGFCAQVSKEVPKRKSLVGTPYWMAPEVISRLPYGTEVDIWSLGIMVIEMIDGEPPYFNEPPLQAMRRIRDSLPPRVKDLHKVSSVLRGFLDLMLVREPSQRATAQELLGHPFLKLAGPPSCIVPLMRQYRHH
Chain of UniProt P07947 (whole entry, looked up): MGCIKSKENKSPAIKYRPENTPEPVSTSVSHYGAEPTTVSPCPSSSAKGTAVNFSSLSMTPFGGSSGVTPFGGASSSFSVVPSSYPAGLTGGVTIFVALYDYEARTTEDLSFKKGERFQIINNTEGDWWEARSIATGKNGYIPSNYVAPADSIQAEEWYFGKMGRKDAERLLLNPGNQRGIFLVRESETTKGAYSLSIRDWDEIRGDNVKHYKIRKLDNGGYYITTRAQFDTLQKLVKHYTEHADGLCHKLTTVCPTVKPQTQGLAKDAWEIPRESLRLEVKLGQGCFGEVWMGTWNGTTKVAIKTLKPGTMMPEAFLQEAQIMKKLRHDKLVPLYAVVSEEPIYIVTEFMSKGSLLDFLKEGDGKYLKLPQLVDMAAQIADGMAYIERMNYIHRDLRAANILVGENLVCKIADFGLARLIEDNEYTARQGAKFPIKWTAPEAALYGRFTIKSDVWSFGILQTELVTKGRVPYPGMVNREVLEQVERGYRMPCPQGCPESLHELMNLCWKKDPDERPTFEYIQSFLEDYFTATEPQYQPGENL
Chain of UniProt Q96SB4 (whole entry, looked up): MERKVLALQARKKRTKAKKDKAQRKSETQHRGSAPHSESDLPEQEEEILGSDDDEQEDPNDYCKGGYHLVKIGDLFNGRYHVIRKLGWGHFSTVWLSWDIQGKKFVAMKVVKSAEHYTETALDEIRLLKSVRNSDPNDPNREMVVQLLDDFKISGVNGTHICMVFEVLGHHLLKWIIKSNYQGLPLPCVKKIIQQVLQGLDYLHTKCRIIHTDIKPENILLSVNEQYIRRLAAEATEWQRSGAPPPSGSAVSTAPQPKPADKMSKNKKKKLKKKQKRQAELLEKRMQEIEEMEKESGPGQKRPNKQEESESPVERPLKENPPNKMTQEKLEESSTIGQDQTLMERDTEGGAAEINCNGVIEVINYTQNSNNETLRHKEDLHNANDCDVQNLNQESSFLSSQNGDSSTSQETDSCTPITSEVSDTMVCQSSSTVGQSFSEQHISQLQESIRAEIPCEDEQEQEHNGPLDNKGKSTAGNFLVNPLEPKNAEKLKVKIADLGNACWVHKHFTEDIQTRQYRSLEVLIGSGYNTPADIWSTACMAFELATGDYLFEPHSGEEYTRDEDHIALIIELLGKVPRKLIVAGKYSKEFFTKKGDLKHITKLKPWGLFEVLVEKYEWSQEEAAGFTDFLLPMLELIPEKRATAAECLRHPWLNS
Chain of UniProt P51812 (whole entry, looked up): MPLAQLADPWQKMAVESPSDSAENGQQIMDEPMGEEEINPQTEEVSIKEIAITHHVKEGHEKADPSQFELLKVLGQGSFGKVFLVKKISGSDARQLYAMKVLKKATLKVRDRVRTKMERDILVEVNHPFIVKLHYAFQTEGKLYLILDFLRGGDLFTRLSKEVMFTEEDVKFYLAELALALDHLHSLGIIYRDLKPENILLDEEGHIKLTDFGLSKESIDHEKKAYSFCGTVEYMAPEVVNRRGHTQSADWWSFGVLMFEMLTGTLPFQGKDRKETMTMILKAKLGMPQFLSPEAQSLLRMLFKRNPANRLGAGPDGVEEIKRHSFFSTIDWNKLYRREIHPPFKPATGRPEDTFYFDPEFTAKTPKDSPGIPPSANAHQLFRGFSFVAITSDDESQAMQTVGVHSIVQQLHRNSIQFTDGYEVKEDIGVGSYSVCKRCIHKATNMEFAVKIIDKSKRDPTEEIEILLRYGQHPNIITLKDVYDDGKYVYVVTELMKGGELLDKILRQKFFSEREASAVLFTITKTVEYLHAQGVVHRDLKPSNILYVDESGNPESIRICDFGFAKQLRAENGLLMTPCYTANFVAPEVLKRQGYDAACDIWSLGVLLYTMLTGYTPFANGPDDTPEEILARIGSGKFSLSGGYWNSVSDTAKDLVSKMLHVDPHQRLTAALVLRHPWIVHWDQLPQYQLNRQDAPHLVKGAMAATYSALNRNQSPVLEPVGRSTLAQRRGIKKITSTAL
Chain of UniProt P57058 (whole entry, looked up): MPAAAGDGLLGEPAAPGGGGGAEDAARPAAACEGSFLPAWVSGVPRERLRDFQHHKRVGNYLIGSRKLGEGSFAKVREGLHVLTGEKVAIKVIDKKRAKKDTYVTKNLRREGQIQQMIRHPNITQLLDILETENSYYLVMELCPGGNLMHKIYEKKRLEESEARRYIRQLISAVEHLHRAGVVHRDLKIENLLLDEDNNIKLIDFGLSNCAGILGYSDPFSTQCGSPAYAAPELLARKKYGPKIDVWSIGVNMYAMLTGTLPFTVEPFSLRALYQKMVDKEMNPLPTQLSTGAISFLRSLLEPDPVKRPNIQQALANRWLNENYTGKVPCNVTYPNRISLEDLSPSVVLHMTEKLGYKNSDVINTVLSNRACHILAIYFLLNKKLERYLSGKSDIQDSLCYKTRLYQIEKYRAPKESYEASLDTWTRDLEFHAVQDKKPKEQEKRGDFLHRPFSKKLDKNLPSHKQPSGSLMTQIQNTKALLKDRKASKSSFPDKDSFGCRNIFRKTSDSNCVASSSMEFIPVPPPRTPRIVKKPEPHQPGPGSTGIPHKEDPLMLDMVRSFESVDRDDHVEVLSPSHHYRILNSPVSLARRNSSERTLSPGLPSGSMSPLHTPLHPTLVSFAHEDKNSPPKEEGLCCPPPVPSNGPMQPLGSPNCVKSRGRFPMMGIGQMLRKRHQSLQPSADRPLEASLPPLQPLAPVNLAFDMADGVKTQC
Chain of UniProt Q14680 (whole entry, looked up): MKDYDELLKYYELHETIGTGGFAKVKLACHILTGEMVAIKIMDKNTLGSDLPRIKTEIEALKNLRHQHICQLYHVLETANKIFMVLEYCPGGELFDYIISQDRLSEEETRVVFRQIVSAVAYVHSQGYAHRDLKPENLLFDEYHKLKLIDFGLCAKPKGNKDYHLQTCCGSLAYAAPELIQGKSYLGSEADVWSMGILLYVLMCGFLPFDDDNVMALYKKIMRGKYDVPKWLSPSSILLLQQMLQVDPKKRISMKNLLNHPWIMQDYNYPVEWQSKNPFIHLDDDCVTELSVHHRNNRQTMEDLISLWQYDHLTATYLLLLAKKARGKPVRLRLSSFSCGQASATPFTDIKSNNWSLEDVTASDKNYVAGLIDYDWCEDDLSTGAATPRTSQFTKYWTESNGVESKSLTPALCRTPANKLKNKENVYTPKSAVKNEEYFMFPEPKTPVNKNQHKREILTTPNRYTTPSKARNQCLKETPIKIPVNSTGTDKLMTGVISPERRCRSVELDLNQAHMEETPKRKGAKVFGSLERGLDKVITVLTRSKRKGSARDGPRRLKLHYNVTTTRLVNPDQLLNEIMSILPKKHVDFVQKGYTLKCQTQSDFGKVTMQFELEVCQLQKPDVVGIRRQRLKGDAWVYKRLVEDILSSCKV
Chain of UniProt P42680 (whole entry, looked up): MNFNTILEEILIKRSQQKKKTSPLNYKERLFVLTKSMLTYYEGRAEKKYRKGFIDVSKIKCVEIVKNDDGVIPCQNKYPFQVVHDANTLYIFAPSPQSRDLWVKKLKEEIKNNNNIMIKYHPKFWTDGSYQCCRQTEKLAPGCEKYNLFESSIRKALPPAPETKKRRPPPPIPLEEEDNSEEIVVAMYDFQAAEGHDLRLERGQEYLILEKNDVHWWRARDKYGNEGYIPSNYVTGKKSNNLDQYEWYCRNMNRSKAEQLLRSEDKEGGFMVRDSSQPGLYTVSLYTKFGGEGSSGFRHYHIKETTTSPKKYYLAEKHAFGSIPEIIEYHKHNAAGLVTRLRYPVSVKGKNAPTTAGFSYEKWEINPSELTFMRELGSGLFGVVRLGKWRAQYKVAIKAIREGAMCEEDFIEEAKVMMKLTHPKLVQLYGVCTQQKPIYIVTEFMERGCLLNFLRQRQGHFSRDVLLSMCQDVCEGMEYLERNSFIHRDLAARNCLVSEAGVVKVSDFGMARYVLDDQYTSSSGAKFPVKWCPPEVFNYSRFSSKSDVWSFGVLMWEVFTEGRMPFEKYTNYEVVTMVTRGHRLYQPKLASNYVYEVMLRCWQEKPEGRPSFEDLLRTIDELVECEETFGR
Chain of UniProt Q14012 (whole entry, looked up): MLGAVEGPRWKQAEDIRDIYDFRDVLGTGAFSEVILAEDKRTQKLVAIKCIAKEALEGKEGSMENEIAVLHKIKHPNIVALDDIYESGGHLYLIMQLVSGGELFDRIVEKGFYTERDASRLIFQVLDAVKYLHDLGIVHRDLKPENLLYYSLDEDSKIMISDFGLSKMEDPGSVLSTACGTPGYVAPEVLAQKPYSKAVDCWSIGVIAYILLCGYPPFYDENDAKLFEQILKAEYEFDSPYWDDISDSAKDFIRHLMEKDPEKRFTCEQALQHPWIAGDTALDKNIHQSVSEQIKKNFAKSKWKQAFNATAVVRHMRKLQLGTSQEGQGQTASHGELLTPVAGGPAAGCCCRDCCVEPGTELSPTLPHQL

Series 1 — observed: enzyme activity; mode: inhibitor; tested at: 0.5 µM; baseline: control
Structure (SMILES): Cc1ccc(NC(=O)c2ccc(CN3CCN(C)CC3)cc2)cc1Nc1nccc(-c2cccnc2)n1
target	remaining activity
Ephrin type-B receptor 3 (EPHB3, Homo sapiens, UniProt P54753)	72.4%
Calcium/calmodulin-dependent protein kinase type 1 (CAMK1, Homo sapiens, UniProt Q14012)	102%
Serine/threonine-protein kinase BRSK2 (BRSK2, Homo sapiens, UniProt Q8IWQ3)	102%
SRSF protein kinase 1 (SRPK1, Homo sapiens, UniProt Q96SB4)	99.5%
Serine/threonine-protein kinase PAK 5 (PAK5, Homo sapiens, UniProt Q9P286)	97%
Tyrosine-protein kinase Yes (YES1, Homo sapiens, UniProt P07947)	88.6%
Casein kinase I isoform delta (CSNK1D, Homo sapiens, UniProt P48730)	98%
Protein kinase C theta type (PRKCQ, Homo sapiens, UniProt Q04759)	101%
Ephrin type-A receptor 6 (EPHA6, Homo sapiens, UniProt Q9UF33)	100%
Muscle, skeletal receptor tyrosine-protein kinase (MUSK, Homo sapiens, UniProt O15146)	95.7%
Tyrosine-protein kinase Tec (TEC, Homo sapiens, UniProt P42680)	94.9%
Tyrosine-protein kinase JAK2 (JAK2, Homo sapiens, UniProt O60674)	97.8%
Dual specificity tyrosine-phosphorylation-regulated kinase 1A (DYRK1A, Homo sapiens, UniProt Q13627)	103%
Tyrosine-protein kinase receptor TYRO3 (TYRO3, Homo sapiens, UniProt Q06418)	93.7%
Serine/threonine-protein kinase pim-1 (PIM1, Homo sapiens, UniProt P11309)	94.4%
Mitogen-activated protein kinase kinase kinase 20 (MAP3K20, Homo sapiens, UniProt Q9NYL2)	98.2%
Serine/threonine-protein kinase PAK 6 (PAK6, Homo sapiens, UniProt Q9NQU5)	112%
Serine/threonine-protein kinase SIK2 (SIK2, Homo sapiens, UniProt Q9H0K1)	100%
Calcium/calmodulin-dependent protein kinase kinase 1 (CAMKK1, Homo sapiens, UniProt Q8N5S9)	96.4%
Maternal embryonic leucine zipper kinase (MELK, Homo sapiens, UniProt Q14680)	89.2%

Series 2 — tested at: 1 µM
Compound: CN1CCN(C(=O)c2ccc(NC(=O)Nc3ccc(N(C)c4ccnc(Nc5ccc(CS(C)(=O)=O)cc5)n4)cc3)cc2)CC1
target	assay	remaining binding [%]
Receptor tyrosine-protein kinase erbB-3 (ERBB3, Homo sapiens, UniProt P21860)	binding, competition with immobilised ligand	85
Ribosomal protein S6 kinase alpha-3, N-terminal kinase domain (RPS6KA3, Homo sapiens, UniProt P51812)	binding, competition with immobilised ligand	57
Hormonally up-regulated neu tumor-associated kinase (HUNK, Homo sapiens, UniProt P57058)	binding	35
Serine/threonine-protein kinase ICK (CILK1, Homo sapiens, UniProt Q9UPZ9)	binding	44
Non-receptor tyrosine-protein kinase TYK2, JH1 (TYK2, Homo sapiens, UniProt P29597)	cell-free assay, competition with immobilised ligand	4.2
Receptor-type tyrosine-protein kinase FLT3 (FLT3, Homo sapiens, UniProt P36888, R834Q)	binding	0
Serine/threonine-protein kinase PAK 5 (PAK5, Homo sapiens, UniProt Q9P286)	binding	67

Series 3 — medium: hydrocarbon/water
Compound	logD
CCC[C@@H]1NC(=O)[C@H](C)N(C)C(=O)[C@H](CC(C)C)NC(=O)Cn2cc(nn2)CN(C)C(=O)[C@H](CC(C)C)NC(=O)[C@H](C)N(C)C(=O)[C@H](CC)NC(=O)[C@H](CCC)N(C)C(=O)[C@H]2CCCN2C1=O	-1.02
CCOC(=O)[C@@H]1CSCC(=O)N[C@@H](CC)C(=O)N(CC(C)C)CC(=O)N[C@@H](CC(C)C)C(=O)N(C)[C@H](C)C(=O)N(C)[C@@H](C)C(=O)N[C@H](CC(C)C)C(=O)N(C)[C@H](C)C(=O)N[C@@H](CC(C)C)C(=O)N1C	0.905
CC[C@@H]1NC(=O)[C@H](C)N(C)C(=O)[C@H]2CCCN2C(=O)[C@H](CC(C)C)NC(=O)CN(CC)C(=O)[C@H](CC(C)C)NC(=O)Cn2cc(nn2)CN(C)C(=O)[C@H](CC(C)C)NC(=O)[C@H](C)N(C)C1=O	-1.93
CCN1CC(=O)N[C@@H](CC(C)C)C(=O)N2CCC[C@@H]2C(=O)N(C)[C@@H](C)C(=O)N[C@@H](CC(C)C)C(=O)N(C)[C@@H](C)C(=O)N[C@@H](CC(C)C)C(=O)N(C)Cc2cn(nn2)CC(=O)N[C@@H](CC(C)C)C1=O	-0.66
CCOC(=O)[C@@H]1CSCC(=O)N[C@H](CC)C(=O)N(C)[C@@H](C)C(=O)N[C@@H](CC(C)C)C(=O)N2CCC[C@@H]2C(=O)N(CC(C)C)CC(=O)N[C@H](CC(C)C)C(=O)N(C)[C@@H](C)C(=O)N[C@@H](CC(C)C)C(=O)N1C	0.837
CCCCCN1CC(=O)N[C@@H](C)C(=O)N2CCC[C@@H]2C(=O)N(C)[C@@H](CC(C)C)C(=O)N[C@@H](C)C(=O)N(CC)CC(=O)N[C@@H](CC(C)C)C(=O)N2CCC[C@@H]2C(=O)N(C)[C@@H](CC(C)C)C(=O)N[C@@H](C)C1=O	1.31
CCC[C@@H]1NC(=O)[C@H](C)N(C)C(=O)[C@H](CC(C)C)NC(=O)Cn2cc(nn2)CN(C)C(=O)[C@H](CC(C)C)NC(=O)[C@H](C)N(C)C(=O)[C@H](CC2CCCCC2)NC(=O)[C@H](CC)N(C)C(=O)[C@H]2CCCN2C1=O	0.653
CCN1CC(=O)NC(CC(C)C)C(=O)N(C)C(C)C(=O)NC(CC(C)C)C(=O)N2CCCC2C(=O)N(CC2CCCCC2)CC(=O)NC(CC(C)C)C(=O)N(C)C(C)C(=O)NC(C)C(=O)N2CCCC2C1=O (stereo not drawn)	2.44

Series 4 — mode: inhibitor; tested at: 10 µM; baseline: control
Target: Diamine acetyltransferase 1 (Homo sapiens, UniProt P21673)
Residues (P21673 1-171): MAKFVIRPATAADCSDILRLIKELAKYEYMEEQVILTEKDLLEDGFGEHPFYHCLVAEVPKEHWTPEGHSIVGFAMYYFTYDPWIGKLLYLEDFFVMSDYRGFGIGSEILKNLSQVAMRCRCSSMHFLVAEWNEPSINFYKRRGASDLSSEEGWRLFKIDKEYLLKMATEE
Compound	remaining activity
CCCCCCCCCCCCCC[C@@H](O)[C@@H](O)[C@@H](N)CO	93.8%
CCCCCCCC/C=C\CCCCCCC(O)C(=O)O (racemic)	92.3%
CC(C)(O[C@@H]1O[C@H](CO)[C@@H](O)[C@H](O)[C@H]1O)[C@H]1Cc2cc3ccc(=O)oc3cc2O1	85.4%
NCC(=O)O	94.5%
CC1=CC(=O)CC(C)(C)C1=O	96.1%
O=C(O[C@@H]1Cc2c(O)cc(O)cc2O[C@@H]1c1cc(O)c(O)c(O)c1)c1cc(O)c(O)c(O)c1	82.2%
O=c1c(-c2ccccc2)coc2ccccc12	96%
CC(C)=CCCC(C)CC=O (stereo not drawn)	83.2%
C=C[C@H]1[C@H](O[C@@H]2O[C@H](CO)[C@@H](O)[C@H](O)[C@H]2O)OC=C2C(=O)OCC[C@]21O	96.9%
O=C(O)C=Cc1ccc(O)cc1	92.6%

Some of these lines once more (series 3):
Compound	logD
CCOC(=O)[C@@H]1CSCC(=O)N[C@@H](CC)C(=O)N(CC(C)C)CC(=O)N[C@@H](CC(C)C)C(=O)N(C)[C@H](C)C(=O)N(C)[C@@H](C)C(=O)N[C@H](CC(C)C)C(=O)N(C)[C@H](C)C(=O)N[C@@H](CC(C)C)C(=O)N1C	0.905
CCN1CC(=O)NC(CC(C)C)C(=O)N(C)C(C)C(=O)NC(CC(C)C)C(=O)N2CCCC2C(=O)N(CC2CCCCC2)CC(=O)NC(CC(C)C)C(=O)N(C)C(C)C(=O)NC(C)C(=O)N2CCCC2C1=O (stereo not drawn)	2.44
CCC[C@@H]1NC(=O)[C@H](C)N(C)C(=O)[C@H](CC(C)C)NC(=O)Cn2cc(nn2)CN(C)C(=O)[C@H](CC(C)C)NC(=O)[C@H](C)N(C)C(=O)[C@H](CC)NC(=O)[C@H](CCC)N(C)C(=O)[C@H]2CCCN2C1=O	-1.02
CCCCCN1CC(=O)N[C@@H](C)C(=O)N2CCC[C@@H]2C(=O)N(C)[C@@H](CC(C)C)C(=O)N[C@@H](C)C(=O)N(CC)CC(=O)N[C@@H](CC(C)C)C(=O)N2CCC[C@@H]2C(=O)N(C)[C@@H](CC(C)C)C(=O)N[C@@H](C)C1=O	1.31
CC[C@@H]1NC(=O)[C@H](C)N(C)C(=O)[C@H]2CCCN2C(=O)[C@H](CC(C)C)NC(=O)CN(CC)C(=O)[C@H](CC(C)C)NC(=O)Cn2cc(nn2)CN(C)C(=O)[C@H](CC(C)C)NC(=O)[C@H](C)N(C)C1=O	-1.93
